Measurements collected from several papers.
Parts stem from different laboratories: compare values within a part only. Several values in a cell are separate wells, animals, samples, runs or records.

Study 1 — time: 6 days; endpoint: viability
SMILES: Cc1ncsc1-c1ccc(C(CO)NC(=O)C2CC(O)CN2C(=O)C(C(C)C)n2cc(-c3ccc(COc4c(-c5c(C)c(F)cc6[nH]ncc56)c(C5CC5)cc5c(N6CC7CC6CN7)nc(OC6CCOCC6)nc45)cc3)nn2)cc1 (stereo not drawn)
ASPC1; cell growth or viability, ATP luminescence; 30 nM: 49.1% and 61.6% and 57.4% and 48.9%
PK-59; cell growth or viability, ATP luminescence; 10 nM: 56.6% and 70.9% and 60.4% and 73.2%
PaTu 8902; cell growth or viability, ATP luminescence; 3 µM: 38.9% and 35.7% and 42.1% and 37.7%
GP5d; cell growth or viability, ATP luminescence; 3 µM: 39% and 36.7% and 33.2% and 25.5%
HPAC; cell growth or viability, ATP luminescence; 10 nM: 72.7% and 76.8% and 75.7% and 82.6%
GP5d; cell growth or viability, ATP luminescence; 3 nM: 76.3% and 80.6% and 72.8% and 77.8%
HT-29; cell growth or viability, ATP luminescence; 1 µM: 70.4% and 96.1% and 80.6% and 79.1%
AsPC-1; CellTiter-Glo; 10 nM; reference: DMSO: 74.3% and 62.9% and 75.8%
PK-59; cell growth or viability, ATP luminescence; 30 nM: 39.3% and 45.5% and 37.3% and 25.4%
PK-59; cell growth or viability, ATP luminescence; 1 nM: 86.7% and 87.7% and 90.4% and 75.7%

Study 2 — observed: CDK1 phosphorylation; measured: CDK1 phospho-Thr14; endpoint: IC50
Structure (SMILES): Cc1ccc(O)c(C)c1-c1cnc2[nH]c(-c3cnc(N4CCC5(CC4)CC(N4CCN(c6ccc(NC7CCC(=O)NC7=O)cc6F)CC4)CO5)nc3)cc2c1C#N (stereo not drawn)
HCC1599: 174 nM
HuCCT-1: 29 nM
MDA-MB-157: 67 nM

Study 3 — technique: microarray; reference: untreated; endpoint: log2 fold change
Structure (SMILES): COCCCCCCC1CC2C(CCC3(C)C(O)CCC23)c2ccc(O)cc21 (stereo not drawn)
SK-OV-3; measured: ISG20L1; 50 µM: 1.39
PANC-1; measured: CCL8; 50 µM: 4.95
SK-OV-3; measured: CCL8; 50 µM: 5.4
A549; measured: CCL11; 10 µM: 0
A549; measured: ACTA2; 50 µM: -0.375
PANC-1; measured: UBB; 50 µM: -0.489
SK-OV-3; measured: CCL11; 10 µM: 0
A549; measured: ISG20L1; 50 µM: 1.14
SK-OV-3; measured: ACTA2; 50 µM: -0.449
PANC-1; measured: ADAMTS14; 50 µM: -0.274

Study 4 — cell line: U-87 MG; concentration: concentration not given; reference: DMSO; endpoint: log2 fold change
SMILES: CCN1/C(=C/C=C2\CCCC(/C=C/C3=[N+](CC)c4ccccc4C3(C)C)=C2NCCCCCCCCN2CCC(Nc3nc4ccccc4n3Cc3ccc(F)cc3)CC2)C(C)(C)c2ccccc21
measured: MATN2 mRNA: -2.14
measured: ARNTL mRNA: 1.24
measured: GPR37L1 mRNA: 5.77
measured: PACSIN3 mRNA: -0.834
measured: PYROXD2 mRNA: -1.02
measured: TTC7A mRNA: -0.929
measured: TNFSF9 mRNA: 2.05
measured: IRS1 mRNA: -1.61
measured: PCSK1 mRNA: -1.2
measured: RNF19B mRNA: 1.11
measured: EPHB2 mRNA: -1.25
measured: ZBTB12 mRNA: -1.5
measured: TCEA3 mRNA: -1.73
measured: NUTM2D mRNA: 1.57
measured: VGF mRNA: -1.36
measured: KIF18B mRNA: -2.74

Some of these lines once more (study 4):
measured: GPR37L1 mRNA: 5.77
measured: PACSIN3 mRNA: -0.834
measured: PYROXD2 mRNA: -1.02
